Assay results collected from several papers.
A part holds a random share of what one study measured. Positions count from the first letter of the parent shown.

Block 1 — technique: RNA Bind-n-Seq; molecule type: RNA; matrix: in vitro; concentration: 200 nM; notes: whole 134-nt RNA, ends assumed; together with: 150 mM LiCl; reference: input library; direction: higher = stronger binding; all molecules: 7-deaza-guanosine replaces G
Target: Fragile X messenger ribonucleoprotein 1, C-terminal low-complexity region (Fmr1, Mus musculus, UniProt P35922)
`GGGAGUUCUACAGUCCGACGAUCAGUCCUGUGCUACACAUCGUAUGUACCGAAUCGGAAAAAAAGGUUUGGAAAAAAAGGAAAGUAUUAUGUUACGCCGUUCGGAUCUGCACUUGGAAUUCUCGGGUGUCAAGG` has a log2 enrichment of -2.74.
`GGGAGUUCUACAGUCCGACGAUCCCUGUGCUACACAUCGUAUGUACCGAAUCGGGCCCCCCCGGGCCCCCCCGGCCCCCCCGGAAAGUAUUAUGUUACGCCGUUCGGAUCUGCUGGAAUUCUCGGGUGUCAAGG` has a log2 enrichment of 1.33.
For `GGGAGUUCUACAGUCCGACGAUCUCCUGUGCUACACAUCGUAUGUACCGAAUCGGGGUUUUUGGGGUUUGGGGUUUUUGGGGAAAGUAUUAUGUUACGCCGUUCGGAUCUGCAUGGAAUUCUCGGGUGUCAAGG`, the log2 enrichment was -1.28.
For `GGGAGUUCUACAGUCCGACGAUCACCACUGCUACAGUCACCACCACCCAGGCCUCCUAUGCAGCUCAGUCUGCAUAUGGCACUCAGCCUGCUUAUCCAGCCUAUGGGCAGCAGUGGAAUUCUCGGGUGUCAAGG`, the log2 enrichment was 1.29.
`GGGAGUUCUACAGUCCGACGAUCUAAUUGUGAUCUACAUUUUAAAAUAUCAAGAGAUCGUCUCAGUGCUUCUUCCCUUACAAUGGAGAGUUUUGCUUUUCUUUGGGCUGGAGGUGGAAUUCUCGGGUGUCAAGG` gave a log2 enrichment of -2.89.
`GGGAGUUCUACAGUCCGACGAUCAUAUGAGUAAAAUCUGUCCCUUUUUCCCCCUUUGAAUGAGGUCUUCCAUGUUUGAGGGAAAGUCUUGCACUAUUGCAUAUAUUUUGGGGAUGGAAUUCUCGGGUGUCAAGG` gave a log2 enrichment of 1.44.

Block 2 — technique: RNA Bind-n-Seq; molecule type: RNA; matrix: in vitro; concentration: 365 nM; reference: no-protein control; direction: higher = stronger binding
Target: RNA binding protein fox-1 homolog 2, RRM domain, GST-SBP tag (RBFOX2, Homo sapiens, UniProt O43251-10, residues 100-194)
Notes: natural RNA segment, single round, ends assumed
Construct (chain): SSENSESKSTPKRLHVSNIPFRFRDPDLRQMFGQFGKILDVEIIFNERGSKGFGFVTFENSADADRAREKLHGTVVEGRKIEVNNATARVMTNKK
Under “RBNS enrichment (R)”, `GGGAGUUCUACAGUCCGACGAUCCCUCCCCAGCUUCCUGCCCAAAGAGCCCCACAUUCAAGCCAACUUGAGGGAAGGGGGCGUCUCGUCAGCUGGUCCCUGCUAGGGAGCUAUUGAUGUGCAAUAUUAGAAAGUGGAAUUCUCGGGUGCCAA` is recorded as 0.194.
`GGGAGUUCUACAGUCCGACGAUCGCUUCUACCGUUAGGCGCUGCAGGCUUGAAGUGGCAAGGCCCUGCAUCUCAAGCACUCAGAGCUCUGUGAGCUUGCCUACUGUGCGCAGGAUCUCCCCAAGUAUGUCCUAUGGAAUUCUCGGGUGCCAA`: “RBNS enrichment (R)” 0.619.
`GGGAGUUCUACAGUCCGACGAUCAGAAUCUACGUCUGCCUCUGAAUGGACUUCCCACCUCCUCUCUCUUGCUCUGAUGCUUGCCUCUGGGCCUCUCCAUGCCCAAGGUGGUCUUUCAUCCUUGACAGGCUGGUUGGAAUUCUCGGGUGCCAA` — result for “RBNS enrichment (R)”: 1.16.
`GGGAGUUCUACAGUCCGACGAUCCCUUAGCCUCGCUGUAGAGACUUCUGUCGCCCUGGGUAGAGUUUAUUUUUUUGAUGGCUAAGCUGUUGCUGACACUGAAAAUAAACUAGGGUUUGGCCUGCCCUAUUUCUUGGAAUUCUCGGGUGCCAA`: “RBNS enrichment (R)” 0.429.
Under “RBNS enrichment (R)”, `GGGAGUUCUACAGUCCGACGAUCAACGGUUAUGAUUGCCAGCGUUUUGGAUGGCAUUAAACUGGAGUUCAGGGUUGAACAUGUCCUGCUCCUCAUCCCAUAAGUACCUUGGACUUUCAGGAGCCUCAGGAUCAUGGAAUUCUCGGGUGCCAA` is recorded as 0.18.
Under “RBNS enrichment (R)”, `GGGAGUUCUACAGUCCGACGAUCACCUUUGCUUUUUAUGGAAAGCAUUACUUUAUUUAAAGAGACAGACAAUGACGCAUUUUAAUCUACCUUUGUCUUAAUUUACAGCAGGUUUUGUAUGAAUUUUUAACCUUUGGAAUUCUCGGGUGCCAA` is recorded as 1.27.
Under “RBNS enrichment (R)”, `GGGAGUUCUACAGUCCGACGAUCUUGGUCACAGUGUGCAUCGCACCGUGCUGUACAUGUGCAGACGCAGCCUGCAGCCAGGUUUUUAUUUAAUGUAAAUAGUUUCUGUUUCCACUGAGGCAGUUUCUGGUACUUGGAAUUCUCGGGUGCCAA` is recorded as 0.239.
Under “RBNS enrichment (R)”, `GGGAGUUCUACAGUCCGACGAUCGUUUGGAAAUGAUGUACAUCUUGACCAUUGCACUGUUGGAACUUAGUCCCUUCUGUUUUAAAGGAGGCAUUUUGGAUAUUAAGCAACUUAAUUUGAAAGAACUUCUUUUGUGGAAUUCUCGGGUGCCAA` is recorded as 0.289.

Block 3 — target: CCNE2, cyclin fold, Cln2 fusion (human); technique: yeast growth competition, sequencing; matrix: yeast; notes: strong parent motif; reference: not given; direction: higher = stronger binding
Parent: BRCA2 docking peptide (human); PSIKRNLLNEFDR; partner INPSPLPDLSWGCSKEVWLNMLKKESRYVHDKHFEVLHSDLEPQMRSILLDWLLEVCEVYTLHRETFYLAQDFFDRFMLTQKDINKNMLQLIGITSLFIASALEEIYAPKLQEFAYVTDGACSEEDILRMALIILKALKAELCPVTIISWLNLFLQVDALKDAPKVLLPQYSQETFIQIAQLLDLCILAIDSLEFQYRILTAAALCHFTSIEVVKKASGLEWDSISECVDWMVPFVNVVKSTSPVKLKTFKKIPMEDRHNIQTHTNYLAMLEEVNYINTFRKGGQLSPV
`PSIKRNLLNEFKR [D12K]` — result for “normalised enrichment score”: 1.83.
`PSIKRNLRNEFDR [L8R]`: “normalised enrichment score” -0.648.
For `PSIKRKLLNEFDR [N6K]`, “normalised enrichment score” read 1.12.
`ASIKRNLLNEFDR [P1A]` — result for “normalised enrichment score”: 1.8.
`PSIKRNLANEFDR [L8A]` — result for “normalised enrichment score”: 0.522.
Under “normalised enrichment score”, `PSIKRQLLNEFDR [N6Q]` is recorded as 0.147.
`PSITRNLLNEFDR [K4T]`: “normalised enrichment score” -0.54.
For `PSTKRNLLNEFDR [I3T]`, “normalised enrichment score” read 0.431.
`PSIKRNLLNEPDR [F11P]` — result for “normalised enrichment score”: 0.321.
`PSIKRNLENEFDR [L8E]` — result for “normalised enrichment score”: 0.484.
Under “normalised enrichment score”, `PSEKRNLLNEFDR [I3E]` is recorded as 0.451.
`PSIKRNLLNKFDR [E10K]`: “normalised enrichment score” 0.224.

Further values, each from its own experiment
`PhoQ, residues 284 288 289 292 302 303 SIHLQL` has a fold induction of 6.14 (PhoP, residues 12 14 15 18 19 TPLRH (Escherichia coli, UniProt P23836); Sort-seq, item: YFP reporter; E. coli; PhoQ-PhoP variant library, together with: 10 µM Mg2+; reference: high Mg2+ state, higher = stronger signaling).

Some of these lines once more (block 2):
Under “RBNS enrichment (R)”, `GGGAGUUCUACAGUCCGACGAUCAACGGUUAUGAUUGCCAGCGUUUUGGAUGGCAUUAAACUGGAGUUCAGGGUUGAACAUGUCCUGCUCCUCAUCCCAUAAGUACCUUGGACUUUCAGGAGCCUCAGGAUCAUGGAAUUCUCGGGUGCCAA` is recorded as 0.18.
`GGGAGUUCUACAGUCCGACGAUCCCUUAGCCUCGCUGUAGAGACUUCUGUCGCCCUGGGUAGAGUUUAUUUUUUUGAUGGCUAAGCUGUUGCUGACACUGAAAAUAAACUAGGGUUUGGCCUGCCCUAUUUCUUGGAAUUCUCGGGUGCCAA`: “RBNS enrichment (R)” 0.429.
Under “RBNS enrichment (R)”, `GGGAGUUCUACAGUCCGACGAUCCCUCCCCAGCUUCCUGCCCAAAGAGCCCCACAUUCAAGCCAACUUGAGGGAAGGGGGCGUCUCGUCAGCUGGUCCCUGCUAGGGAGCUAUUGAUGUGCAAUAUUAGAAAGUGGAAUUCUCGGGUGCCAA` is recorded as 0.194.
